{"data": "Published values gathered from unrelated publications", "ATR": "Serine/threonine-protein kinase ATR (ATR, Homo sapiens, UniProt Q13535)", "UCHL1": "Ubiquitin carboxyl-terminal hydrolase isozyme L1 (UCHL1, Homo sapiens, UniProt P09936)", "note": "Each line is one published result; not all experiments were run side by side.", "chain of UniProt Q13535 (whole entry, looked up)": "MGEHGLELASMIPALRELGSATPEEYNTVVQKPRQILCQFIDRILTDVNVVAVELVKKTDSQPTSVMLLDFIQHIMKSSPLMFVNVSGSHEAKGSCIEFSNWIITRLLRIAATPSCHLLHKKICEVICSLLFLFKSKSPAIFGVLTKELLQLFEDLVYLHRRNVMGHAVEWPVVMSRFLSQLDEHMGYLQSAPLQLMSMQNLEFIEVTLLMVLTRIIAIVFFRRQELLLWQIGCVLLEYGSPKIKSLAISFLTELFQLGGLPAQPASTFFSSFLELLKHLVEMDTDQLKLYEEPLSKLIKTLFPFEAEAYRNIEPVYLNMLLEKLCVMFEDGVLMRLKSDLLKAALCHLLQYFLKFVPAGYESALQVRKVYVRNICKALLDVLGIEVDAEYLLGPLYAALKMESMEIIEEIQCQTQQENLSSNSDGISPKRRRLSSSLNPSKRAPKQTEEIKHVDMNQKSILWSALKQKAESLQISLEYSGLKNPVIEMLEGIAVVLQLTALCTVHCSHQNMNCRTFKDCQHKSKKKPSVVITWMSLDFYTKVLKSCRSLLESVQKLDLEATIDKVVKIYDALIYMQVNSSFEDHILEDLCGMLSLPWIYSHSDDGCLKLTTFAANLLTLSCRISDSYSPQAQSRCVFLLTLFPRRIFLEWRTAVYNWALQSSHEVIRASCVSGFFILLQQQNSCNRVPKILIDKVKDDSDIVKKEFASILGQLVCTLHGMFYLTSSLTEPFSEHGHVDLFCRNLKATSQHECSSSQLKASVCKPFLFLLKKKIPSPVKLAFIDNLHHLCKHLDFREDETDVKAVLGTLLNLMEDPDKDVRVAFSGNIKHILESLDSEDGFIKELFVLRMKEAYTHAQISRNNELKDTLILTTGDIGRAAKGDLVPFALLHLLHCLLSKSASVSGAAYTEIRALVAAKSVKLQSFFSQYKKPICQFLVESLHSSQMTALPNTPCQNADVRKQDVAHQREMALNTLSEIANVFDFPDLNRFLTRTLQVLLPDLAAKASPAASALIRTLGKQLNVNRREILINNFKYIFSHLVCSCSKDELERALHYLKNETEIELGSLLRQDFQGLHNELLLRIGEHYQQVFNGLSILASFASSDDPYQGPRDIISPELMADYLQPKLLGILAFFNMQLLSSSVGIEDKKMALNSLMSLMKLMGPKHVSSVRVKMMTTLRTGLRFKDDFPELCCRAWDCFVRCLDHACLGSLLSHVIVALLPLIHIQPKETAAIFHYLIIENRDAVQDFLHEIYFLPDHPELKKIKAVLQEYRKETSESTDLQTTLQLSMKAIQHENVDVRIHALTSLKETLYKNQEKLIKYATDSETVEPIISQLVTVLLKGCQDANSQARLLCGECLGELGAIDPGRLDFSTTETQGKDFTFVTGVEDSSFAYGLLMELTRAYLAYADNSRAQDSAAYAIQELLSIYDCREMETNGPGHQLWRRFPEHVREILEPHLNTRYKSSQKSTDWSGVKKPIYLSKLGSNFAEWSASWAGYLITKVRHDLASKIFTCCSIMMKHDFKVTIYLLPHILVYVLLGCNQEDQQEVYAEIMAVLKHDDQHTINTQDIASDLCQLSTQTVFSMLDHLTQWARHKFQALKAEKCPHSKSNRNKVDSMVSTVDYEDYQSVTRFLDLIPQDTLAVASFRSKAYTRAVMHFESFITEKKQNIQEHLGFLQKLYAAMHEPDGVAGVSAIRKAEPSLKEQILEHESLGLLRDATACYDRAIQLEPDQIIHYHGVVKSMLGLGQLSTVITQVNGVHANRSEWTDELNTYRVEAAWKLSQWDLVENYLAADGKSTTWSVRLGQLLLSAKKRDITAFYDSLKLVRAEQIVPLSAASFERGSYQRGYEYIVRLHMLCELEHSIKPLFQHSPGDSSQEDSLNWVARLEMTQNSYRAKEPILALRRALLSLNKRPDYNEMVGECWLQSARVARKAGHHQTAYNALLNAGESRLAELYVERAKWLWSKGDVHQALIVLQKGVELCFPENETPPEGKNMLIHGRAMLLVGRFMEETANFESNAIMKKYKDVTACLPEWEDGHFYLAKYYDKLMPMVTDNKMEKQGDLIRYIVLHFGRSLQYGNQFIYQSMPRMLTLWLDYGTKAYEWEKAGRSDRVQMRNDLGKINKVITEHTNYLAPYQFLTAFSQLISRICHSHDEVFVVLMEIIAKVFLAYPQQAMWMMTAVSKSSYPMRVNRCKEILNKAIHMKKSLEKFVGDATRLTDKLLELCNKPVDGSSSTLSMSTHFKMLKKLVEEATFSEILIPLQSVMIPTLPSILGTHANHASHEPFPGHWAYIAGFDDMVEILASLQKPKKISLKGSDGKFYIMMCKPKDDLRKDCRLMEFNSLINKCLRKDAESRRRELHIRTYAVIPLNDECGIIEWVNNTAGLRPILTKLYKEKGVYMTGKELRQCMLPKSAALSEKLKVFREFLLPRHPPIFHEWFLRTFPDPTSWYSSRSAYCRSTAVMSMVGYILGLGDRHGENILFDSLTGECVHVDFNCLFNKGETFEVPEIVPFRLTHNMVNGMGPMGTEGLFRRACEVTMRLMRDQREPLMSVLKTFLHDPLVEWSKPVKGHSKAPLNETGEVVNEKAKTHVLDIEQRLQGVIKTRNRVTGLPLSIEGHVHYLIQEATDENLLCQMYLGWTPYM", "chain of UniProt P09936 (whole entry, looked up)": "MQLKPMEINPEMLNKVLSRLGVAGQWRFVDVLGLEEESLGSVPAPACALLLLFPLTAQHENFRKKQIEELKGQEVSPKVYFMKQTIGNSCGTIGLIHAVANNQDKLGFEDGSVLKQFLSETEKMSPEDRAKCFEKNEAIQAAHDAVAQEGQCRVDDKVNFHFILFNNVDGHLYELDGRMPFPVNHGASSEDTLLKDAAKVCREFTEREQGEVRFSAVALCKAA"}
{"SMILES": "Cc1cnc(NC2CCOCC2)nc1-n1cnc(C(=O)NC(CN)c2cc(F)cc(Cl)c2)c1 (centres unmarked)", "target": "ATR", "test": "radiometric", "conditions": "1 µM", "endpoint": "remaining activity", "result": "107%"}
{"SMILES": "Cc1cc(NC(=O)c2cccc3cc(-c4cccc5[nH]nc(N)c45)ccc23)ccc1F", "target": "ATR", "test": "enzyme activity, kinase profiling panel", "conditions": "0.1 µM", "endpoint": "remaining activity", "result": "100%"}
{"SMILES": "CC[C@@H]1[C@H](F)C(=O)N[C@@H]1COc1nccc2cc(C(N)=O)c(OC)cc12", "target": "ATR", "test": "ATP-site probe binding, ActivX profiling", "system": "THP-1 cell lysate", "conditions": "0.01 mM", "endpoint": "inhibition", "result": "14.9%"}
{"SMILES": "CC(C)c1noc2ncc(C(=O)N3CCSSCC3)cc12", "target": "UCHL1", "test": "covalent, intact protein LC-MS", "conditions": "12.5 µM", "endpoint": "labelling", "result": "7.71%"}
{"SMILES": "Cc1ccc(NC(=O)c2ccc(C)c(C(F)(F)F)c2)cc1C#Cc1nn(C2CCC(O)CC2)c2ncnc(N)c12 (centres unmarked)", "target": "ATR", "test": "enzyme activity", "conditions": "10 µM, added: ATP 10 µM", "endpoint": "remaining activity", "result": "94%"}
{"SMILES": "Cc1ccc(C(=O)NCc2ccsc2)cc1C#Cc1cn(C(C)C)c2ncnc(N)c12", "target": "ATR", "test": "kinase activity", "conditions": "1 µM, added: ATP at Km", "endpoint": "remaining activity", "result": "101%"}
{"SMILES": "COc1ccc2oc(-c3ccc4nc(N)oc4c3)c/c(=N\\c3ccccc3NC(=O)CCN)c2c1", "target": "ATR", "test": "kinase activity", "conditions": "1 µM", "scale": "relative to: untreated control", "endpoint": "remaining activity", "result": "101%"}
{"SMILES": "N#CC(=Cc1cccc(O)c1)C(=O)Nc1ccccc1C(=O)O", "target": "UCHL1", "test": "covalent, intact protein LC-MS", "conditions": "12.5 µM", "endpoint": "labelling", "result": "40.4%"}
{"SMILES": "COc1cc(-c2cncc3c2CN(C)Cc2cc(N4CCNCC4)ccc2-3)cc(OC)c1OC", "target": "ATR", "test": "enzyme activity", "conditions": "1 µM, added: 10 µM ATP", "scale": "relative to: DMSO", "endpoint": "remaining activity", "result": "93%"}
{"SMILES": "COc1cc(Cl)c(C(=O)N[C@@H](CN[C@H]2CC[C@@H](N)CC2)Cc2ccc(C#N)cc2)cc1-c1ccc(CN[C@H](C)c2ccc(C)cc2)o1", "target": "ATR", "test": "enzyme activity, KinaseProfiler panel", "conditions": "1 µM", "endpoint": "remaining activity", "result": "104%"}
{"SMILES": "CCN1CCN(Cc2ccc(NC(=O)c3ccc(C)c(/C=C/c4cnc5[nH]ccc5c4OC)c3)cc2C(F)(F)F)CC1", "target": "ATR", "system": "A-375", "conditions": "0.5 µM", "endpoint": "inhibition", "result": "-16.3%"}
{"note": "A few entries again:"}
{"SMILES": "COc1ccc2oc(-c3ccc4nc(N)oc4c3)c/c(=N\\c3ccccc3NC(=O)CCN)c2c1", "target": "ATR", "test": "kinase activity", "conditions": "1 µM", "scale": "relative to: untreated control", "endpoint": "remaining activity", "result": "101%"}
{"SMILES": "N#CC(=Cc1cccc(O)c1)C(=O)Nc1ccccc1C(=O)O", "target": "UCHL1", "test": "covalent, intact protein LC-MS", "conditions": "12.5 µM", "endpoint": "labelling", "result": "40.4%"}
